# Literature values that unrelated publications cite.
# Compare with care: the assays were run in different laboratories. ± marks the error that the study gave.
SMILES,tested on,assay,system,conditions,endpoint,value
CC1COc2ccccc2N1C(=O)C(Cl)Cl (stereo not shown),glutathione S-transferase,,female rat liver cytosol,with: GSH,scaled intrinsic clearance,26 mL/min/g liver
CCC(CC)COC(=O)[C@H](C)N[P@](=O)(OC[C@H]1O[C@@](C#N)(c2ccc3c(N)ncnn23)[C@H](O)[C@@H]1O)Oc1ccccc1,SARS-CoV-2,viral replication,Caco-2,,EC90,0.2 ± 0.07 µM
Cn1c(C[S+]([O-])c2ccccc2C(F)(F)F)c(C(=O)OC(C)(C)C)c2cc(O)ccc21 (stereo not shown),Chikungunya virus,viral replication,Vero,,EC50,6.5 µM
Fc1ccccc1Cc1nc(-c2nc(C(F)(F)F)n[nH]2)cn2ccnc12,,equilibrium dialysis,human plasma,1 and 10 µM,plasma protein binding,98.9%
CO/N=C(\C(=O)N[C@@H]1C(=O)N2C(C(=O)O)=C(COC(C)=O)CS[C@H]12)c1csc(N)n1,Enterobacter cloacae,,clinical isolate RKI-No_215/15,,MIC,≤ 1 µg/mL
O=C1c2ccccc2C(=O)c2oc(-c3ccccc3)nc21,SARS-CoV-2 papain-like protease,"enzyme activity, inhibitor",,"incomplete inhibition, apparent value",IC50,0.56 µM
O=C(O[C@@H]1[C@@H](O)[C@H](Oc2cc(O)c3c(c2)O[C@H](c2ccccc2)CC3=O)O[C@@H]2COC(=O)c3cc(O)c(O)c(O)c3-c3c(cc(O)c(O)c3O)C(=O)O[C@@H]12)c1cc(O)c(O)c(O)c1,SARS-CoV-2 main protease,"enzyme activity, inhibitor",,concentration not given,inhibition,inhibited
NC(=O)c1ncn([C@@H]2O[C@H](CO)[C@@H](O)[C@H]2O)n1,Chikungunya virus,viral replication,Vero,,EC50,2.42 µM
Cc1cc(O)c2c(c1)C(=O)c1cc(O)cc(O)c1C2=O,SARS-CoV-2,viral replication,,literature value,EC50,25 to 50 µM
O=C(O[C@@H]1Cc2c(O)cc(O)cc2O[C@@H]1c1cc(=O)c(O)c2c(O)c(O)cc([C@H]3Oc4cc(O)cc(O)c4C[C@H]3O)c2c1)c1cc(O)c(O)c(O)c1,SARS-CoV-2,,Vero,concentration not given,viral count reduction,75%
O=[N+]([O-])c1ccc(O[C@H]2O[C@H](CO)[C@@H](O)[C@H](O)[C@@H]2O)cc1,"Beta-mannosidase (Bacteroides thetaiotaomicron, UniProt Q8AAK6)",substrate,,,kcat,128 s⁻¹
O=c1cc(-c2ccc(O)c(O)c2)oc2cc(O)cc(O)c12,SARS-CoV-2,viral replication,,literature value,EC50,10 to 50 µM
COC(=O)Nc1c(N)nc(-c2nn(Cc3ccccc3F)c3ncc(F)cc23)nc1N,,,human patients with HFrEF,"oral, 10 mg once daily, multiple doses",total Cmax,~1000 nM
